Published values collected from several papers.
A part holds a random share of what one study measured. Positions count from the first letter of the parent shown.

Sample 1 — target: CCNE1, cyclin fold, Cln2 fusion (human); technique: yeast growth competition, sequencing; matrix: yeast; notes: strong parent motif; reference: not given; reading: higher = stronger binding
Parent: E2F1 docking peptide (human); PPVKRRLDLETDH; partner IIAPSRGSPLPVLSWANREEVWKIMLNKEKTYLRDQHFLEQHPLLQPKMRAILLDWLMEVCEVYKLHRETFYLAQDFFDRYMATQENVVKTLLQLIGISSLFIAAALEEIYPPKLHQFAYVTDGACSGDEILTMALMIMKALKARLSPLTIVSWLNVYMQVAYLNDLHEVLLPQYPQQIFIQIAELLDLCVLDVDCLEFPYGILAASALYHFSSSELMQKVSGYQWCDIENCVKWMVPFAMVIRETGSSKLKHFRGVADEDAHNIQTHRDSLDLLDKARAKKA
`D12M` — result for “normalised enrichment score”: 1.87.
Under “normalised enrichment score”, `P1Y` is recorded as 2.44.
For `K4C`, “normalised enrichment score” read 2.76.
For `D12I`, “normalised enrichment score” read 0.94.
For `L7S`, “normalised enrichment score” read -0.427.
`D8K`: “normalised enrichment score” 1.17.
For `R5M`, “normalised enrichment score” read 0.132.

Sample 2 — technique: RNA Bind-n-Seq; molecule type: RNA; matrix: in vitro; tested at: 365 nM; reference: no-protein control; reading: higher = stronger binding
Target: RNA binding protein fox-1 homolog 2, RRM domain, GST-SBP tag (RBFOX2, Homo sapiens, UniProt O43251-10, residues 100-194)
Notes: natural RNA segment, single round, ends assumed
Under “RBNS enrichment (R)”, `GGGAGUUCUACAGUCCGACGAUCUUUUAUGAAGCCUUCAGGGGGACUCAGUAUUGCUGGCCUUUGUUGUAGCCUGUGGUUCCUUCGGAGUCCUCUCCCACCCUUUUCCAGUAUUUGAAUAAAAAGAUAAAAGAUGGAAUUCUCGGGUGCCAA` is recorded as 0.531.
Under “RBNS enrichment (R)”, `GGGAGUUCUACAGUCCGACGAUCGGGAUCCAGAAUAUACCCCAAAGAGCAAGAAGUACUUCUUGCAUGACGACAGAGAUGAUGGUGUGGAUUAUUGGGCCAAAAGAGGAAGAGGUCGUGGUACUUUUCAACGUUGGAAUUCUCGGGUGCCAA` is recorded as 1.34.
Under “RBNS enrichment (R)”, `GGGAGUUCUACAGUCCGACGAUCGAAUAUCAAGUAUAAUGAUGUAGUAAAAAGAUUUCUCCAGAAAACACUUUGAGAUACUUAAAGAAAUUCAGAGCAUAUCGAAUGUUAUGAAUGAAGAGUAAAAUAAUUACUGGAAUUCUCGGGUGCCAA` is recorded as 0.635.
`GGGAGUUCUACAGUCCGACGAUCGAGGGGGUUGGGCUGGAUUUCUUUGUAGAUGUGGACCACCAAGGGGUUGUUGAAAACUAAUUGUAUUAAAUGUCUUUUGAUAAGCCUUCUGCUCACACUUUUGUGACUGUUGGAAUUCUCGGGUGCCAA`: “RBNS enrichment (R)” 0.443.
For `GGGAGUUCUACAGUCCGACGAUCAAGGAAACAAAGAGUGCUUUUGGGCAUCCAACAGUUAAUCACUUAUGUUUUUAGAGCAUGCAAUCUUAACUUUGUUAAACUAUUAUUAUUGAUCACAUUUUGAUUUUUUUUGGAAUUCUCGGGUGCCAA`, “RBNS enrichment (R)” read 4.75.
Under “RBNS enrichment (R)”, `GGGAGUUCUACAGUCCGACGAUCUGUGCCCAUCUGUAAAGGGGCAGCUGACAGUUUGUGGCAUCUUGCCAAGGGUCCCUGUGUGUGUGUAUGUGUGUGCAUGUGUGCGUGUCUCCAUGUGCGUCCAUAUUUAAUGGAAUUCUCGGGUGCCAA` is recorded as 1.93.
`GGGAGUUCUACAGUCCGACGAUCAAGAUCAAGUGCUGGAGGCCGGAGCCAUCUGUGAGCCUCCCUAAGCCACAGCAGUGAGGAGAUUUGUGUGCUGGGGCACUCAAAAGCCUCUACAAGAUCUUCGUUAAGAGUGGAAUUCUCGGGUGCCAA` — result for “RBNS enrichment (R)”: 0.362.

Sample 3 — technique: DHFR PCA, deep sequencing; matrix: yeast; with: (+)-ABA 0 µM; reference: wild-type fitted maximum; reading: higher = stronger binding
Target: ABI1, truncated, D143A, DHFR fusion (Arabidopsis thaliana)
Notes: methotrexate growth selection, single substitutions
Parent: PYL1, truncated, DHFR fusion (Arabidopsis thaliana); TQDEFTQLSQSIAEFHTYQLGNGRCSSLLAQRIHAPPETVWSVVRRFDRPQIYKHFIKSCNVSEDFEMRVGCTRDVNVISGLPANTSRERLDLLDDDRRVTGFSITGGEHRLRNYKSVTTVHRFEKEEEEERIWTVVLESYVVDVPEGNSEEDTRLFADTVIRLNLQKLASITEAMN
For `V118C`, “relative binding score” read 12%.
`D159G` — result for “relative binding score”: -3.86%.
`T86E` — result for “relative binding score”: -1.8%.
For `P83N`, “relative binding score” read 12.4%.
`T120R`: “relative binding score” -6.2%.
`S11K` — result for “relative binding score”: -0.631%.
`Q2W` — result for “relative binding score”: 58.4%.
Under “relative binding score”, `Y53L` is recorded as -0.359%.
`E130Q`: “relative binding score” 25.4%.
Under “relative binding score”, `M68N` is recorded as 3.04%.
Under “relative binding score”, `P36S` is recorded as 22.1%.
`P36F` — result for “relative binding score”: 2.14%.
Under “relative binding score”, `E129L` is recorded as 12.7%.

Further values, each from its own experiment
For `PhoQ, residues 284 288 289 292 302 303 SLCLSL`, the fold induction was 0.435 (PhoP, residues 12 14 15 18 19 LFHKL (Escherichia coli, UniProt P23836); Sort-seq, measured: YFP reporter; E. coli; PhoQ-PhoP variant library, with: 10 µM Mg2+; reference: high Mg2+ state, higher = stronger signaling).

Excerpt of the above (sample 2):
Under “RBNS enrichment (R)”, `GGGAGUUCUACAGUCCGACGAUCGGGAUCCAGAAUAUACCCCAAAGAGCAAGAAGUACUUCUUGCAUGACGACAGAGAUGAUGGUGUGGAUUAUUGGGCCAAAAGAGGAAGAGGUCGUGGUACUUUUCAACGUUGGAAUUCUCGGGUGCCAA` is recorded as 1.34.
Under “RBNS enrichment (R)”, `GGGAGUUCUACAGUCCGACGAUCGAAUAUCAAGUAUAAUGAUGUAGUAAAAAGAUUUCUCCAGAAAACACUUUGAGAUACUUAAAGAAAUUCAGAGCAUAUCGAAUGUUAUGAAUGAAGAGUAAAAUAAUUACUGGAAUUCUCGGGUGCCAA` is recorded as 0.635.
`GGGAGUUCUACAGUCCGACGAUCGAGGGGGUUGGGCUGGAUUUCUUUGUAGAUGUGGACCACCAAGGGGUUGUUGAAAACUAAUUGUAUUAAAUGUCUUUUGAUAAGCCUUCUGCUCACACUUUUGUGACUGUUGGAAUUCUCGGGUGCCAA`: “RBNS enrichment (R)” 0.443.
For `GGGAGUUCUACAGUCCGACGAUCAAGGAAACAAAGAGUGCUUUUGGGCAUCCAACAGUUAAUCACUUAUGUUUUUAGAGCAUGCAAUCUUAACUUUGUUAAACUAUUAUUAUUGAUCACAUUUUGAUUUUUUUUGGAAUUCUCGGGUGCCAA`, “RBNS enrichment (R)” read 4.75.
